# Experimental data from different studies.
# Parts stem from different laboratories: compare values within a part only.

# Study 1
# Target: Sal-like protein 4, full length isoform A (SALL4, Homo sapiens, UniProt Q9UJQ4, residues 1-1053)
# UniProt Q9UJQ4, sequence (whole entry, looked up): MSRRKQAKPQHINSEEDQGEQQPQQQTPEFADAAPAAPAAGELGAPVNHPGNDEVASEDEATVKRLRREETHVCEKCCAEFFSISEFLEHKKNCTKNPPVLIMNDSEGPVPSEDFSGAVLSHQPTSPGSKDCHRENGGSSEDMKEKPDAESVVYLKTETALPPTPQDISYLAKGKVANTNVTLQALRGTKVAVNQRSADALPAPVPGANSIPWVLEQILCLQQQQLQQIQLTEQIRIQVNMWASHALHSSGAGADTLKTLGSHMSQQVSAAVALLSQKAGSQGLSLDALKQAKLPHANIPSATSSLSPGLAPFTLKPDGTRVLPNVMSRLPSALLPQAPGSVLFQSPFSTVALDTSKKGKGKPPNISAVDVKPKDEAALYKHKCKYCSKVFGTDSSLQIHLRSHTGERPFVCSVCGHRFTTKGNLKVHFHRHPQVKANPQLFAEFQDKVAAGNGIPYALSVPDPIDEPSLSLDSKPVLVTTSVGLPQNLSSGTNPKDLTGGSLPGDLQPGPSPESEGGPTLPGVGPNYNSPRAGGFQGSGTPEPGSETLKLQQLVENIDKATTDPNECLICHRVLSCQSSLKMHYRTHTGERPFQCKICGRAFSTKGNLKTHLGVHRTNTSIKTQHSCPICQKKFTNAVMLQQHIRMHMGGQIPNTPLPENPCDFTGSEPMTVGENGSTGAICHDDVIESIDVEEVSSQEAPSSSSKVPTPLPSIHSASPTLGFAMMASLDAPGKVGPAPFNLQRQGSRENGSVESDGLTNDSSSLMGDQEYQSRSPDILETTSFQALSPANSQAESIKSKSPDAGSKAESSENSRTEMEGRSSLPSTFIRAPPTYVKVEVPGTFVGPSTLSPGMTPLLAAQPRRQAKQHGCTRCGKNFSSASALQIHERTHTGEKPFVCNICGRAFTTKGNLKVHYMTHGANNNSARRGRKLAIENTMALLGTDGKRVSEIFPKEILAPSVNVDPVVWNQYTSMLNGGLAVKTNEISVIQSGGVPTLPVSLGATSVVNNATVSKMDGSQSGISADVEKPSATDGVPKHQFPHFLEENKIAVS
# Method: universal PBM
# Form: double-stranded DNA, one strand shown
# Medium: in vitro
# Concentration: 600 nM
# Setting: 8-mer, flanks averaged, mean of replicates
# Direction: higher = stronger binding
Sequence,E-score
CCGATCGG,-0.314
ACATAAGG,0.186
GCTGTCTA,-0.117
GATCCGAC,-0.146
ATGACGTG,-0.0684

# Study 2
# Target: Histone acetyltransferase KAT6A, winged helix 1, GST fusion (KAT6A, Homo sapiens, UniProt Q92794, residues 1-85)
# Method: protein binding microarray
# Form: double-stranded DNA, one strand shown
# Medium: in vitro
# Concentration: not given
# Setting: 8-mer, flanks averaged, mean of 2 arrays, mostly near background
# Relative to: not given
# Direction: higher = stronger binding
# Residues (chain): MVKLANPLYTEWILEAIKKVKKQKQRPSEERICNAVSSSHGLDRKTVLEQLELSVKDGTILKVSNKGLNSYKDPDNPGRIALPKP
Sequence,E-score
TGGTCAAA,-0.0639
CATCTTGA,-0.298
ACCACGAA,-0.218
AGATGCCG,0.284

# Study 3
# Target: Prothrombin, mature alpha-thrombin (F2, Homo sapiens, UniProt P00734)
# Method: aptamer microarray, sandwich
# Form: DNA with 2'F-ANA
# Medium: in vitro
# Concentration: 200 nM
# Setting: whole 15-mer aptamer, many near background
# Added: Cy3 exosite-II aptamer, 400 nM
# Direction: higher = stronger binding
Sequence,mean fluorescence intensity [a.u.]
GGTTGGTGTGGTTGG (2'F-ANA at 5 7 10 11 15),48.2
GGTTGGTGTGGTTGG (2'F-ANA at 1 4 6 9 11 13),68.7
GGTTGGTGTGGTTGG (2'F-ANA at 4 9 11 12 13 14 15),87.2
GGTTGGTGTGGTTGG (2'F-ANA at 2 5 7 8 9 10 15),63.5

# Mixed results
Substance,target,assay,system,setting,scale,measurement,value
"PhoQ, residues 284 288 289 292 302 303 TTSMTC","PhoP, residues 12 14 15 18 19 QWHVF (Escherichia coli, UniProt P23836)","Sort-seq, item: YFP reporter",E. coli,"PhoQ-PhoP variant library, added: 10 µM Mg2+","relative to: high Mg2+ state, higher = stronger signaling",fold induction,2.67

# Excerpt of the above (study 3):
Sequence,mean fluorescence intensity [a.u.]
GGTTGGTGTGGTTGG (2'F-ANA at 4 9 11 12 13 14 15),87.2
